Assay results of several laboratories.
Lines come from different studies, so protocols differ. ± gives the spread as reported.
uncharacterized protein: uncharacterized protein (Streptococcus mutans serotype c, UniProt Q8DS94)
rhlR: HTH-type quorum-sensing regulator RhlR (rhlR, Pseudomonas aeruginosa, UniProt P54292)
UniProt P54292, sequence (whole entry, looked up): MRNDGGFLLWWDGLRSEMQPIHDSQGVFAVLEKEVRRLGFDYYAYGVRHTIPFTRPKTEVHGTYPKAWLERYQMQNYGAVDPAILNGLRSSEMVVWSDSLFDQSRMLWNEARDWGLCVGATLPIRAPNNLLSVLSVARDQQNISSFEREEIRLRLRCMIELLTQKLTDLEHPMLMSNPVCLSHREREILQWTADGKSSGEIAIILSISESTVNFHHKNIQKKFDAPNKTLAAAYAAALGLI
UniProt Q9VNB5, sequence (whole entry, looked up): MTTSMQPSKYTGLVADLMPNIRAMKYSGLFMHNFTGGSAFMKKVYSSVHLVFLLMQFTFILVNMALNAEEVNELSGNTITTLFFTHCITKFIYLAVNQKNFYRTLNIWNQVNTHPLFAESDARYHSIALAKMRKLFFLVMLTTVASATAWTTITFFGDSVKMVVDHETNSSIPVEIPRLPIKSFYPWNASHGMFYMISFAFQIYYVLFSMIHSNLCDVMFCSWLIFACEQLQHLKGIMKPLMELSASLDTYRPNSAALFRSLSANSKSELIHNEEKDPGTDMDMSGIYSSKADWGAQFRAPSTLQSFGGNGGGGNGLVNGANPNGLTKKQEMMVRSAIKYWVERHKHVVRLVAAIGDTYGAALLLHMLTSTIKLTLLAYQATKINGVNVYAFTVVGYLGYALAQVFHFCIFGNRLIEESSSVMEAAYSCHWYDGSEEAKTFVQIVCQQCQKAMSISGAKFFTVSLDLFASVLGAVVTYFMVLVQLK
UniProt P28336, sequence (whole entry, looked up): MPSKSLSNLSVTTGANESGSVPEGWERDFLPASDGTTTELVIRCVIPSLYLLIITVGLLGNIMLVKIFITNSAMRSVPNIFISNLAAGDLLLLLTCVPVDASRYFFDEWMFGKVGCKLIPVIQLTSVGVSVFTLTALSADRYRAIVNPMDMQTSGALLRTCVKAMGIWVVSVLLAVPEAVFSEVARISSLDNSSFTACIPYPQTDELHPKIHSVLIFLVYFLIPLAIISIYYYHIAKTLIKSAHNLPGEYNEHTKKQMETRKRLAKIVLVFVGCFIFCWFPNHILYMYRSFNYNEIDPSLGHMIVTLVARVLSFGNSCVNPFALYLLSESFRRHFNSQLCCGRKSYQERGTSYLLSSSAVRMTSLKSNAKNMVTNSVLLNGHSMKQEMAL

CC(C)C[C@H](NC(=O)[C@H](CO)NC(=O)CNC(=O)[C@@H](N)CO)C(=O)N[C@@H](CO)C(=O)N[C@H](C(=O)N[C@@H](Cc1ccccc1)C(=O)N[C@@H](Cc1ccccc1)C(=O)N[C@@H](CCCNC(=N)N)C(=O)N[C@@H](CC(C)C)C(=O)N[C@@H](Cc1ccccc1)C(=O)N[C@@H](CC(N)=O)C(=O)N[C@@H](CCCNC(=N)N)C(=O)N[C@@H](CO)C(=O)N[C@@H](Cc1ccccc1)C(=O)N[C@@H](C(=O)N[C@@H](CCC(N)=O)C(=O)N[C@@H](C)C(=O)O)[C@H](C)O)[C@@H](C)O  EC50 (uncharacterized protein; Streptococcus mutans): > 1 µM
CC1(C)C(C=C(Cl)Cl)C1C(=O)OCc1c(F)c(F)c(F)c(F)c1F (stereo not drawn)  EC50 (Voltage-gated sodium channel (Musca domestica, UniProt Q25439); cation influx, activator, membrane potential dye; HEK293 expressing Musca domestica VGSC): 0.736 µM
CC[C@H](C)[C@H](NC(=O)[C@H](Cc1ccccc1)NC(=O)[C@H](Cc1c[nH]cn1)NC(=O)[C@@H](NC(=O)[C@H](CC(C)C)NC(=O)[C@H](CCCNC(=N)N)NC(=O)[C@@H](NC(=O)[C@@H](N)CCC(=O)O)[C@@H](C)CC)[C@@H](C)O)C(=O)N[C@@H](Cc1ccccc1)C(=O)N[C@@H](Cc1ccccc1)C(=O)N[C@@H](Cc1ccccc1)C(=O)N[C@@H](Cc1ccccc1)C(=O)N[C@@H](Cc1ccccc1)C(=O)N[C@@H](CCCCN)C(=O)N[C@@H](CCCNC(=N)N)C(=O)N[C@@H](CCCNC(=N)N)C(=O)O  EC50 (histidine kinase ComD (Streptococcus pneumoniae serotype 2, UniProt A0A0H2ZM50); reporter gene, agonist; Streptococcus pneumoniae, D39 comX::lacZ; 30 min, pH 7.3, 37 °C): > 10 µM
CN1CCC[C@H]1c1cncc(C=O)c1  EC50 (Acetylcholine receptor subunit alpha-type acr-16 (Ascaris suum, UniProt F1KYJ9); ion current, agonist, two-electrode voltage clamp; oocytes): 11.5 µM
O=C(NC1CCSC1=O)C1CCC1 (stereo not drawn)  EC50 (rhlR; reporter gene, agonist, measured: rhlI-gfp fluorescence; PAO-JP2 reporter): 1.65 µM
CC(C)C[C@H](NC(=O)[C@H](C)NC(=O)[C@H](CCC(N)=O)NC(=O)[C@@H](NC(=O)[C@H](Cc1ccccc1)NC(=O)[C@H](CO)NC(=O)[C@H](CCCNC(=N)N)NC(=O)[C@H](CC(N)=O)NC(=O)[C@H](Cc1ccccc1)NC(=O)[C@H](CC(C)C)NC(=O)[C@H](CCCNC(=N)N)NC(=O)[C@H](Cc1ccccc1)NC(=O)[C@H](Cc1ccccc1)NC(=O)[C@@H](NC(=O)[C@H](CO)NC(=O)[C@H](CC(C)C)NC(=O)[C@H](CO)NC(=O)CNC(=O)[C@@H](N)CO)[C@@H](C)O)[C@@H](C)O)C(=O)NCC(=O)N[C@@H](CCCCN)C(=O)O  EC50 (uncharacterized protein; Streptococcus mutans): 0.24 µM
CSCC[C@H](NC(=O)[C@H](CC(C)C)NC(=O)[C@H](CO)NC(=O)CNC(=O)[C@@H](NC(=O)[C@H](C)NC(=O)[C@H](Cc1c[nH]c2ccccc12)NC(=O)[C@H](CC(C)C)NC(=O)[C@@H]1CCC(=O)N1)C(C)C)C(N)=O  EC50 (Neuromedin-B receptor (NMBR, Homo sapiens, UniProt P28336); inositol phosphate generation, agonist; NCI-H1299 expressing human NMBR; 45 min, 37 °C; relative to: 1 µM neuromedin B): 0.0126 ± 0.00034 µM
O=C(N[C@H]1CCOC1=O)C1CCCC1  EC50 (rhlR; reporter gene, agonist; Escherichia coli reporter strain): 2.8 µM
CC(C)C[C@H](NC(=O)[C@H](C)NC(=O)[C@H](CCC(N)=O)NC(=O)[C@@H](NC(=O)[C@H](Cc1ccccc1)NC(=O)[C@H](CO)NC(=O)[C@H](CCCNC(=N)N)NC(=O)[C@H](CC(N)=O)NC(=O)[C@H](Cc1ccccc1)NC(=O)[C@H](CC(C)C)NC(=O)[C@H](CCCNC(=N)N)NC(=O)[C@H](Cc1ccccc1)NC(=O)[C@H](Cc1ccccc1)NC(=O)[C@@H](NC(=O)[C@@H](N)CO)[C@@H](C)O)[C@@H](C)O)C(=O)NCC(=O)N[C@@H](CCCCN)C(=O)O  EC50 (uncharacterized protein; Streptococcus mutans): 3.6 µM
CC(C)C[C@H](NC(=O)[C@@H]1CCC(=O)N1)C(=O)N[C@H](C(=O)N[C@@H](Cc1ccccc1)C(=O)N[C@H](C(=O)N1CCC[C@H]1C(=O)NCC(=O)N[C@@H](Cc1c[nH]c2ccccc12)C(=O)NCC(=O)N[C@@H](CCC(N)=O)C(N)=O)[C@@H](C)O)[C@@H](C)O  EC50 (Adipokinetic hormone receptor (Bombyx mori, UniProt Q8T6U9)): 0.0117 ± 0.0016 µM
CC[C@H](C)[C@H](NC(=O)[C@H](CCCNC(=N)N)NC(=O)[C@@H]1CCCN1C(=O)[C@@H](NC(=O)[C@@H](NC(=O)[C@H](CCCCN)NC(=O)[C@H](CC(C)C)NC(=O)[C@H](CC(N)=O)NC(=O)[C@H](CCCCN)NC(=O)[C@@H](NC(=O)[C@H](C)NC(=O)[C@H](Cc1ccccc1)NC(=O)[C@H](CC(N)=O)NC(=O)[C@H](CCC(=O)O)NC(=O)CN)[C@@H](C)CC)[C@@H](C)O)[C@@H](C)CC)C(N)=O  EC50 (Ecdysis triggering hormone receptor A (Aedes aegypti, UniProt A7J264)): ~0.097 µM
O=C(CSc1nnc(-c2cccnc2)n1C1CC1)N1CCc2cc(Br)ccc21  EC50 (Orco (Drosophila melanogaster, UniProt Q9VNB5); calcium mobilization, agonist; HEK293 expressing Orco): 16.7 µM

Excerpt of the above:
O=C(NC1CCSC1=O)C1CCC1 (stereo not drawn)  EC50 (rhlR; reporter gene, agonist, measured: rhlI-gfp fluorescence; PAO-JP2 reporter): 1.65 µM
CC(C)C[C@H](NC(=O)[C@H](C)NC(=O)[C@H](CCC(N)=O)NC(=O)[C@@H](NC(=O)[C@H](Cc1ccccc1)NC(=O)[C@H](CO)NC(=O)[C@H](CCCNC(=N)N)NC(=O)[C@H](CC(N)=O)NC(=O)[C@H](Cc1ccccc1)NC(=O)[C@H](CC(C)C)NC(=O)[C@H](CCCNC(=N)N)NC(=O)[C@H](Cc1ccccc1)NC(=O)[C@H](Cc1ccccc1)NC(=O)[C@@H](NC(=O)[C@H](CO)NC(=O)[C@H](CC(C)C)NC(=O)[C@H](CO)NC(=O)CNC(=O)[C@@H](N)CO)[C@@H](C)O)[C@@H](C)O)C(=O)NCC(=O)N[C@@H](CCCCN)C(=O)O  EC50 (uncharacterized protein; Streptococcus mutans): 0.24 µM
